# Assay results of several laboratories.
# Every numbered part comes from another study and shows a few of its results, in no order.
# UniProt Q9BYP7, sequence (whole entry, looked up): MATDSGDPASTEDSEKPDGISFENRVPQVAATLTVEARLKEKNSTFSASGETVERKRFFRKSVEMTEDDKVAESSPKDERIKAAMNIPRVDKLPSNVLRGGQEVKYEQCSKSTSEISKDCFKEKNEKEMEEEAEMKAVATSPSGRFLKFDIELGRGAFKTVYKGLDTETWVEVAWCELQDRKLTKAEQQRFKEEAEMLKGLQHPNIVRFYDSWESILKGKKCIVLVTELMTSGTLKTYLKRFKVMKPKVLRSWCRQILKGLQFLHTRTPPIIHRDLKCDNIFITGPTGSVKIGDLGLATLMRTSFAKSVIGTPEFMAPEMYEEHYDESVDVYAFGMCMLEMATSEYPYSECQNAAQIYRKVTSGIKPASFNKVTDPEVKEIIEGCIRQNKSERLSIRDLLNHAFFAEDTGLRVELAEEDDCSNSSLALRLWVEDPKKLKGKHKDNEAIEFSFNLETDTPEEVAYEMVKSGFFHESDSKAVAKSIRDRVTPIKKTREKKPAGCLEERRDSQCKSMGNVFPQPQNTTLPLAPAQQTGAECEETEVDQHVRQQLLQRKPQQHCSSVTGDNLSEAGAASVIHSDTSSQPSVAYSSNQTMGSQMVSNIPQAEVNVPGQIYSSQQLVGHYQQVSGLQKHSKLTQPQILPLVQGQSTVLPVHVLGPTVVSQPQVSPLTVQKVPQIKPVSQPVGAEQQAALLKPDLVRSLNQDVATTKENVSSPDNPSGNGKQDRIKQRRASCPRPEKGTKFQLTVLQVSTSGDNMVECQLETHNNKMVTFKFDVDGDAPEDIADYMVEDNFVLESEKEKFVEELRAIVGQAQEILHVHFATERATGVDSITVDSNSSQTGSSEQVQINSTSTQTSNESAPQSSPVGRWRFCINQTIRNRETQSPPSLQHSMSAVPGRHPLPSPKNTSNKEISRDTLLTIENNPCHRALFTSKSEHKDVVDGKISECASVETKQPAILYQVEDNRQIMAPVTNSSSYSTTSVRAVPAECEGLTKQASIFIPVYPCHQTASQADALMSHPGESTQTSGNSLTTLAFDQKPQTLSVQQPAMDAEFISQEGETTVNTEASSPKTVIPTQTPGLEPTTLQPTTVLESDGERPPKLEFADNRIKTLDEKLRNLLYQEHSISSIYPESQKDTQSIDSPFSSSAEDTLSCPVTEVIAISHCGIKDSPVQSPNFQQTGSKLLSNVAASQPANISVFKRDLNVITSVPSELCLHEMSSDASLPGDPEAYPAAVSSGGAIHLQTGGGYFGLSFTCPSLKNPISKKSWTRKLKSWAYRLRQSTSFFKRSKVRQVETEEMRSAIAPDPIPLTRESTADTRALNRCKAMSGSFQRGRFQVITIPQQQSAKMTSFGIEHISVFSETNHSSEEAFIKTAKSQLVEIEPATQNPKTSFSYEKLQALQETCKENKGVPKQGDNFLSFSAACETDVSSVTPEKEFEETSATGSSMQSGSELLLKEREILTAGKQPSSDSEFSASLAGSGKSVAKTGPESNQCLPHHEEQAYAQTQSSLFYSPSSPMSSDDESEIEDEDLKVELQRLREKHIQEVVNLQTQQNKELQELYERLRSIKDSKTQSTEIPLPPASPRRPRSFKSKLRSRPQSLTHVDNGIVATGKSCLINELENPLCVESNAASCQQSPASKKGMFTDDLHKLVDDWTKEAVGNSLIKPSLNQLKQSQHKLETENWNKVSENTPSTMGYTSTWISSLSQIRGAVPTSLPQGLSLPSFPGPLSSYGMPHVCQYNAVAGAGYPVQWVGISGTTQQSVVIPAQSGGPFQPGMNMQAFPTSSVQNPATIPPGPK
# UniProt Q00537, sequence (whole entry, looked up): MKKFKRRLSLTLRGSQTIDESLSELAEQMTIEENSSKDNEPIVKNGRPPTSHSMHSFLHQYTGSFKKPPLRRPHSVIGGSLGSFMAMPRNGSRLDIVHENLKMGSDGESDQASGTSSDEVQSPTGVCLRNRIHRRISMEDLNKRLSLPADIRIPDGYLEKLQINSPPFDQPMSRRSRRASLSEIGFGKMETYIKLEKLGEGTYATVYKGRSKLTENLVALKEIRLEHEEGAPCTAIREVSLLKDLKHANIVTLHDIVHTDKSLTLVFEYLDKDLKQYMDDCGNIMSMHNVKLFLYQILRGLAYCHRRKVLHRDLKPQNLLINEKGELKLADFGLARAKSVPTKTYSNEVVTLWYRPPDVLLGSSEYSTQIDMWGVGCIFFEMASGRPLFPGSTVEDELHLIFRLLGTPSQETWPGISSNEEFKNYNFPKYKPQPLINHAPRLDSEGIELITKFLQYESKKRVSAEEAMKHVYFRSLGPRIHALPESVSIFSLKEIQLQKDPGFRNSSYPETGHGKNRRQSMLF
# UniProt O15111, sequence (whole entry, looked up): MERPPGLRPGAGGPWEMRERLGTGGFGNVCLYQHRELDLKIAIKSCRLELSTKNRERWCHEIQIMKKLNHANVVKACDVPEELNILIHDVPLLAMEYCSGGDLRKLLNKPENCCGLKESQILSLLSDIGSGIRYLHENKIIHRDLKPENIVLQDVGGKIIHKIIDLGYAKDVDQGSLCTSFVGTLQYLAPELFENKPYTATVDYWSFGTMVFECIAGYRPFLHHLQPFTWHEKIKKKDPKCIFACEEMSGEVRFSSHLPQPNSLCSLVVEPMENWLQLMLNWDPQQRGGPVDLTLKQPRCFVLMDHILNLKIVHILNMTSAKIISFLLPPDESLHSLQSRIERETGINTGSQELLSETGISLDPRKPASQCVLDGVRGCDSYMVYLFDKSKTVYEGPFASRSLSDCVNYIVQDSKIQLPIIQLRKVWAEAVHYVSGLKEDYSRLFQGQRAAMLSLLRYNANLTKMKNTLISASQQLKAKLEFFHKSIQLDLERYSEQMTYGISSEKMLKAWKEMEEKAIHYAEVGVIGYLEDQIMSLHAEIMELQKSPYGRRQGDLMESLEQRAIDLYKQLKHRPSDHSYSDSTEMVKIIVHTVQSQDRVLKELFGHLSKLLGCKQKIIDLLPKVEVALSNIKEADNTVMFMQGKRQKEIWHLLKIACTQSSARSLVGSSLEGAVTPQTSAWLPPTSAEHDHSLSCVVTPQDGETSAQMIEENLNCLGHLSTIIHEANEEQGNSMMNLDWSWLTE
# UniProt O94804, sequence (whole entry, looked up): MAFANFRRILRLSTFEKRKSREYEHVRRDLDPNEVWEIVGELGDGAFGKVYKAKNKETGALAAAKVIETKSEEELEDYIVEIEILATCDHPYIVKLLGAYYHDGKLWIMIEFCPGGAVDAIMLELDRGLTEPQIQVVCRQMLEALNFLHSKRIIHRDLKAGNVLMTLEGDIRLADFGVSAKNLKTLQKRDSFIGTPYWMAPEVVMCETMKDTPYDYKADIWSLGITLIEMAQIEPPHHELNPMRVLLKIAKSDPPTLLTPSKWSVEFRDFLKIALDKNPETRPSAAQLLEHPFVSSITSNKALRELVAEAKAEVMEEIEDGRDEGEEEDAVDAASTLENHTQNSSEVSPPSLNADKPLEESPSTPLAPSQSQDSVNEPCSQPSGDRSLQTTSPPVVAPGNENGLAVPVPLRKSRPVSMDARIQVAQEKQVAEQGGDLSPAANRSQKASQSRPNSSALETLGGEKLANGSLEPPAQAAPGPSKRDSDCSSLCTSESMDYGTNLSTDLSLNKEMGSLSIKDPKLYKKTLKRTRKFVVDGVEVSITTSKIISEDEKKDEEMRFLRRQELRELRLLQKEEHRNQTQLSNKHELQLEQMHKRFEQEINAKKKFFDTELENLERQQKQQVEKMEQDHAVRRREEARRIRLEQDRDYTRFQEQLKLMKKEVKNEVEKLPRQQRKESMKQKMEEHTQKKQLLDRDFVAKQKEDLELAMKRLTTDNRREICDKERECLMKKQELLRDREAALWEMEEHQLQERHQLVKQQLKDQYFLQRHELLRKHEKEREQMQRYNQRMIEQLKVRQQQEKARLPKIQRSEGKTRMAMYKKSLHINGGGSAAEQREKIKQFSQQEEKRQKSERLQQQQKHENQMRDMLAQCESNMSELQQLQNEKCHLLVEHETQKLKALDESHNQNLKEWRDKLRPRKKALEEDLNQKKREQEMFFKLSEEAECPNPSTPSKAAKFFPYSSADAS

# Series 1
# Cell line: Huh-7
# Concentration: 10 µM
# Time: 24 h
Structure (SMILES),viability
Cc1ccc(-c2cc(C(F)(F)F)nn2-c2ccc(S(N)(=O)=O)cc2)cc1,93.6%
C[C@H](N)[C@H](O)c1cccc(O)c1,91.5%
CCCCOc1ccc(C(=O)CCN2CCCCC2)cc1,93.9%
CC(=O)OCC(COC(C)=O)OC(C)=O,98%
C[C@@H]1CCC[C@H](C)N1NC(=O)c1ccc(Cl)c(S(N)(=O)=O)c1,99.9%
COc1ccc(C2C(=O)c3ccccc3C2=O)cc1,100%
CCCc1nn(C)c2c(=O)[nH]c(-c3cc(S(=O)(=O)N4CCN(C)CC4)ccc3OCC)nc12,95.4%
COC(=O)[C@@H]1[C@H]2C[C@H]3c4[nH]c5ccccc5c4CCN3C[C@@H]2CC[C@@H]1O,98.5%
CC[C@H]1OC(=O)[C@H](C)C(=O)[C@H](C)[C@@H](O[C@@H]2O[C@H](C)C[C@H](N(C)C)[C@H]2O)[C@](C)(OC)C[C@@H](C)C(=O)[C@H](C)[C@H]2N(CCCCn3cnc(-c4cccnc4)c3)C(=O)O[C@]12C,52.5%
CNC(=C[N+](=O)[O-])NCCSCc1ccc(CN(C)C)o1,99.9%
CC(=O)NS(=O)(=O)c1ccc(N)cc1,99.7%
COc1cc(NC(C)CCCN)c2ncccc2c1 (centres unmarked),94.8%
CC[C@H](C)C(=O)O[C@H]1C[C@@H](C)C=C2C=C[C@H](C)[C@H](CC[C@@H]3C[C@@H](O)CC(=O)O3)[C@H]21,91.9%
CCN(CC)C(=O)N1CCN(C)CC1,101%
N[C@@H](Cc1cc(I)c(Oc2cc(I)c(O)c(I)c2)c(I)c1)C(=O)O,99.4%
C/C=C/c1ccc(OC)cc1,103%
CCc1cccc2c3c([nH]c12)C(CC)(CC(=O)O)OCC3 (centres unmarked),105%
CC(C)(CO)C(O)C(=O)NCCCO (centres unmarked),106%

# Series 2
# Compound: O=C(Nc1cccnn1)N1CCC(=Cc2cccc(Oc3ccc(C(F)(F)F)cn3)c2)CC1
# Concentration: 1 µM
target,assay,remaining binding
"BMP-2-inducible protein kinase (BMP2K, Homo sapiens, UniProt Q9NSY1)","cell-free assay, competition with immobilised ligand",100%
"Serine/threonine-protein kinase 36 (STK36, Homo sapiens, UniProt Q9NRP7)","cell-free assay, competition with immobilised ligand",100%
"Epidermal growth factor receptor (EGFR, Homo sapiens, UniProt P00533, del746-750)","cell-free assay, competition with immobilised ligand",73%
"MAP kinase-interacting serine/threonine-protein kinase 2 (MKNK2, Homo sapiens, UniProt Q9HBH9)","cell-free assay, competition with immobilised ligand",100%
"Inhibitor of nuclear factor kappa-B kinase subunit alpha (CHUK, Homo sapiens, UniProt O15111)","cell-free assay, competition with immobilised ligand",93%
"Cyclin-dependent kinase 19 (CDK19, Homo sapiens, UniProt Q9BWU1)",competition binding,100%
"Ribosomal protein S6 kinase alpha-2, N-terminal kinase domain (RPS6KA2, Homo sapiens, UniProt Q15349)","cell-free assay, competition with immobilised ligand",80%
"Dual specificity tyrosine-phosphorylation-regulated kinase 1B (DYRK1B, Homo sapiens, UniProt Q9Y463)","cell-free assay, competition with immobilised ligand",100%
"Cyclin-dependent kinase 17 (CDK17, Homo sapiens, UniProt Q00537)","cell-free assay, competition with immobilised ligand",100%
"Mitogen-activated protein kinase kinase kinase 19 (MAP3K19, Homo sapiens, UniProt Q56UN5)","cell-free assay, competition with immobilised ligand",85%
"Serine/threonine-protein kinase WNK3 (WNK3, Homo sapiens, UniProt Q9BYP7)","cell-free assay, competition with immobilised ligand",100%
"Tyrosine-protein kinase ABL1, non-phosphorylated (ABL1, Homo sapiens, UniProt P00519, F317L)","cell-free assay, competition with immobilised ligand",100%
"SRSF protein kinase 1 (SRPK1, Homo sapiens, UniProt Q96SB4)","cell-free assay, competition with immobilised ligand",97%
"Hepatocyte growth factor receptor (MET, Homo sapiens, UniProt P08581, M1250T)","cell-free assay, competition with immobilised ligand",100%
"Serine/threonine-protein kinase 10 (STK10, Homo sapiens, UniProt O94804)","cell-free assay, competition with immobilised ligand",74%
"Myosin light chain kinase family member 4 (MYLK4, Homo sapiens, UniProt Q86YV6)","cell-free assay, competition with immobilised ligand",100%
"Receptor-type tyrosine-protein kinase FLT3 (FLT3, Homo sapiens, UniProt P36888, D835H)","cell-free assay, competition with immobilised ligand",88%
"Receptor-type tyrosine-protein kinase FLT3, autoinhibited (FLT3, Homo sapiens, UniProt P36888)","cell-free assay, competition with immobilised ligand",97%
"Epidermal growth factor receptor (EGFR, Homo sapiens, UniProt P00533, L858R)","cell-free assay, competition with immobilised ligand",100%
"Serine/threonine-protein kinase haspin (HASPIN, Homo sapiens, UniProt Q8TF76)","cell-free assay, competition with immobilised ligand",100%
"Mitogen-activated protein kinase kinase kinase 3 (MAP3K3, Homo sapiens, UniProt Q99759)","cell-free assay, competition with immobilised ligand",100%
"Ribosomal protein S6 kinase alpha-6, C-terminal kinase domain (RPS6KA6, Homo sapiens, UniProt Q9UK32)","cell-free assay, competition with immobilised ligand",100%
"Glycogen synthase kinase-3 beta (GSK3B, Homo sapiens, UniProt P49841)","cell-free assay, competition with immobilised ligand",100%
"Epidermal growth factor receptor (EGFR, Homo sapiens, UniProt P00533, T790M)","cell-free assay, competition with immobilised ligand",100%
"Mitogen-activated protein kinase kinase kinase 6 (MAP3K6, Homo sapiens, UniProt O95382)","cell-free assay, competition with immobilised ligand",100%

# Series 3
# Target: Serine/threonine-protein kinase 24 (STK24, Homo sapiens, UniProt Q9Y6E0)
# UniProt Q9Y6E0, sequence (whole entry, looked up): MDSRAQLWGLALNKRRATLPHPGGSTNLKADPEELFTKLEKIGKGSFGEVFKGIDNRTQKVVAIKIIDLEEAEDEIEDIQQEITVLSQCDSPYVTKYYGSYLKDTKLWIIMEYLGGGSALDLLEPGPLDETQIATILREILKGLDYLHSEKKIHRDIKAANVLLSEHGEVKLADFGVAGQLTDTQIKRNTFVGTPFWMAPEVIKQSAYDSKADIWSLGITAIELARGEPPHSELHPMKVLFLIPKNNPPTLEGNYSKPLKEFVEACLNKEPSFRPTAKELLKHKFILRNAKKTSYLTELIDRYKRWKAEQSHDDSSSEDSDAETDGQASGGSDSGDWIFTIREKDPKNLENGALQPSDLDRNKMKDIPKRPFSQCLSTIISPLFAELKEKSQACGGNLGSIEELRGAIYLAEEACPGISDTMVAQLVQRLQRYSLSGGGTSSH
# Observed: enzyme activity
# Action: inhibitor
# Concentration: 0.5 µM
# Baseline: control
Structure (SMILES),remaining activity
Cn1cnc2cc3c(Nc4cccc(Br)c4)ncnc3cc21,83.4%
CCC(=O)Nc1ccc2ncnc(Nc3cccc(Br)c3)c2c1,102%
COc1cc2ncnc(Nc3ccc(OCc4ccccc4)cc3)c2cc1OC,104%
Nc1[nH]nc2nnc(-c3c(-c4ccccc4)nn4ccccc34)cc12,74.6%
O=C(Nc1ccc(Cl)cc1)c1ccccc1NCc1ccncc1,92.6%
CCN1/C(=C/C(C)=O)Sc2ccc(OC)cc21,82.2%
COc1ccc(Cl)cc1NC(=O)Nc1cc(C)nc2ccccc12,81.6%
Cc1ccc(NC(=O)c2ccc(CN3CCN(C)CC3)cc2)cc1Nc1nccc(-c2cccnc2)n1,107%
COc1cc2ncnc(N3CCN(C(=O)Nc4ccc(Oc5ccccc5)cc4)CC3)c2cc1OC,99.6%
CS(=O)(=O)CCNCc1ccc(-c2ccc3ncnc(Nc4ccc(OCc5cccc(F)c5)c(Cl)c4)c3c2)o1,106%
CC(C)[C@H](CO)Nc1nc(Nc2cccc(Cl)c2)c2ncn(C(C)C)c2n1,80.8%
O=c1cc(N2CCOCC2)oc2c1ccc1ccccc12,103%
CC(C)c1nn(-c2c(Cl)cccc2Cl)c2nc(Cc3ccc(OCCO)cc3)[nH]c(=O)c12,47.9%
COc1ccc(-c2cnc3c(-c4ccsc4)cnn3c2)cc1,95.5%
O=C1NC(=O)/C(=C/c2ccc3nccnc3c2)S1,93.2%
Cn1cc(/C=C2\C(=O)Nc3ccc(S(N)(=O)=O)cc32)c2ccccc21,80.2%
COc1cc2ncc(-c3ccccc3)nc2cc1OC,104%
CN(C)CCCn1cc(C2=C(c3c[nH]c4ccccc34)C(=O)NC2=O)c2ccccc21,52.9%
C[S+]([O-])c1ccc(-c2nc(-c3ccncc3)c(-c3ccc(F)cc3)[nH]2)cc1 (centres unmarked),99%
CCOc1cc2ncnc(Nc3cccc(Br)c3)c2cc1OCC,97.6%
Cc1nc(Nc2ncc(C(=O)Nc3c(C)cccc3Cl)s2)cc(N2CCN(CCO)CC2)n1,104%
CC(=O)O/N=C1/C(c2c(O)[nH]c3cc(Br)ccc23)=Nc2ccccc21,70.9%

# Series 4
# Target: Calcium/calmodulin-dependent protein kinase type II subunit alpha (CAMK2A, Homo sapiens, UniProt Q9UQM7)
# UniProt Q9UQM7, sequence (whole entry, looked up): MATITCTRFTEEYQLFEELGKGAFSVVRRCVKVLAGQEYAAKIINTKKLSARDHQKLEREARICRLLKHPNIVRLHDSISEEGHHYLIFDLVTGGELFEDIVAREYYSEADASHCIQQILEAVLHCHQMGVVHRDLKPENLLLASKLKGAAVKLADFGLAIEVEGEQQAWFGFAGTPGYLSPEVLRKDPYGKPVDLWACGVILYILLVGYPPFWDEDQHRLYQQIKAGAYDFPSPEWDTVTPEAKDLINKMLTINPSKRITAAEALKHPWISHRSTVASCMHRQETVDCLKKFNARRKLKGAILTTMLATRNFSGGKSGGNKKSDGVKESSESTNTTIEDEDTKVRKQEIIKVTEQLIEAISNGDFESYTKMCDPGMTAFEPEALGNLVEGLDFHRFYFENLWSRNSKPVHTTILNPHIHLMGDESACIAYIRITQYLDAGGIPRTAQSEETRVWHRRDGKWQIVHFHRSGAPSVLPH
# Observed: enzyme activity
# Action: inhibitor
# Concentration: 10 µM
SMILES,inhibition [%]
O=C(O)[C@H]1O[C@@H](Oc2cc(O)c3c(=O)cc(-c4ccc(O)c(O)c4)oc3c2)[C@H](O)[C@@H](O)[C@@H]1O,-26
CC(C)(C)C(=O)OCOC(=O)[C@@H]1N2C(=O)[C@@H](N=CN3CCCCCC3)[C@H]2SC1(C)C,-3
C/C(=C\C(=O)CC(C)C(=O)O)[C@H]1C[C@H](O)[C@@]2(C)C3=C(C(=O)C[C@]12C)[C@@]1(C)CCC(=O)C(C)(C)[C@@H]1C[C@@H]3O (some centres unmarked),2
COc1c(-c2ccccc2)oc2cc(O)cc(O)c2c1=O,-1
COc1cc(C(C)=O)ccc1OCCCN1CCC(c2noc3cc(F)ccc23)CC1,-4
C[C@H](CCC(=O)O)[C@H]1CC[C@H]2[C@@H]3[C@H](O)C[C@@H]4CC(=O)CC[C@]4(C)[C@H]3C[C@H](O)[C@]12C,-33

# Repeated from above (series 1):
Structure (SMILES),viability
CCCCOc1ccc(C(=O)CCN2CCCCC2)cc1,93.9%
CC(=O)OCC(COC(C)=O)OC(C)=O,98%
C[C@@H]1CCC[C@H](C)N1NC(=O)c1ccc(Cl)c(S(N)(=O)=O)c1,99.9%
COc1ccc(C2C(=O)c3ccccc3C2=O)cc1,100%
CCCc1nn(C)c2c(=O)[nH]c(-c3cc(S(=O)(=O)N4CCN(C)CC4)ccc3OCC)nc12,95.4%
COC(=O)[C@@H]1[C@H]2C[C@H]3c4[nH]c5ccccc5c4CCN3C[C@@H]2CC[C@@H]1O,98.5%
CC[C@H]1OC(=O)[C@H](C)C(=O)[C@H](C)[C@@H](O[C@@H]2O[C@H](C)C[C@H](N(C)C)[C@H]2O)[C@](C)(OC)C[C@@H](C)C(=O)[C@H](C)[C@H]2N(CCCCn3cnc(-c4cccnc4)c3)C(=O)O[C@]12C,52.5%
